Assay results from different studies.
Lines come from different studies, so protocols differ. Several values in a cell are separate wells, animals, samples, runs or records. Numbers after ± are the reported error. In brackets after ≈: the same amount, converted by molar mass.
Organism: Staphylococcus aureus

CN[C@H](CC(C)C)C(=O)N[C@H]1C(=O)N[C@@H](CC(N)=O)C(=O)N[C@H]2C(=O)N[C@H]3C(=O)N[C@H](C(=O)N[C@H](C(=O)O)c4cc(O)cc(O)c4-c4cc3ccc4O)[C@H](O)c3ccc(c(Cl)c3)Oc3cc2cc(c3O[C@@H]2O[C@H](CO)[C@@H](O)[C@H](O)[C@H]2O[C@H]2C[C@](C)(N)[C@H](O)[C@H](C)O2)Oc2ccc(cc2Cl)[C@H]1O
time to kill below detection (ATCC 700699, MRSA; 4 × MIC): ≤ 10 h

CC(C)[C@@H]1NC(=O)CNC(=O)[C@H](CC(N)=O)NC(=O)[C@H](CCCNC(=N)N)NC(=O)[C@H](Cc2ccc(O)cc2)NC(=O)[C@H](C(C)C)NC(=O)[C@@H](NC(=O)[C@@H](NC(=O)[C@H](CC(N)=O)NC(=O)[C@H](Cc2c[nH]c3ccccc23)NC(=O)[C@H](C)NC(=O)[C@H](Cc2ccccc2)NC(=O)CN)C(C)C)CSSC[C@@H](C(=O)N[C@@H](Cc2c[nH]cn2)C(=O)N[C@@H](CCCNC(=N)N)C(=O)N[C@@H](CCCNC(=N)N)C(=O)N[C@@H](C)C(=O)N[C@@H](CC(N)=O)C(N)=O)NC(=O)[C@H](C(C)C)NC(=O)[C@H](CCCNC(=N)N)NC1=O
EC50 (bactericidal activity; CGMCC 1.9; 24 h): 9.59 µM

CC[C@H](C)[C@H](NC(=O)[C@H](Cc1c[nH]c2ccccc12)NC(=O)[C@@H](NC(=O)[C@H](Cc1c[nH]c2ccccc12)NC(=O)[C@@H]1CCCN1C(=O)[C@@H](NC(=O)[C@H](C)N)[C@@H](C)CC)[C@@H](C)CC)C(=O)N[C@@H](Cc1c[nH]c2ccccc12)C(=O)N[C@@H](CCCNC(=N)N)C(=O)N[C@@H](CC(C)C)C(=O)N[C@@H](CC(C)C)C(=O)N[C@@H](CCCNC(=N)N)C(=O)N[C@@H](CCCCN)C(=O)NCC(N)=O
MBC (ATCC 6051; 18 h, 37 °C): 0.94 µM (≈ 1.7 µg/mL)

CN[C@H](CC(C)C)C(=O)N[C@H]1C(=O)N[C@@H](CC(N)=O)C(=O)N[C@H]2C(=O)N[C@H]3C(=O)N[C@H](C(=O)N[C@H](C(=O)O)c4cc(O)cc(O)c4-c4cc3ccc4O)[C@H](O)c3ccc(c(Cl)c3)Oc3cc2cc(c3O[C@@H]2O[C@H](CO)[C@@H](O)[C@H](O)[C@H]2O[C@H]2C[C@](C)(N)[C@H](O)[C@H](C)O2)Oc2ccc(cc2Cl)[C@H]1O
ROS level (DCFH-DA fluorescence; MRSA ATCC 33591; 4 × MIC; higher = more ROS): 1010 a.u.

CC[C@H](C)[C@H](NC(=O)[C@H](Cc1ccccc1)NC(=O)[C@@H](NC(=O)[C@H](Cc1ccccc1)NC(=O)[C@@H]1CCCN1C(=O)[C@@H](NC(=O)[C@H](C)N)[C@@H](C)CC)[C@@H](C)CC)C(=O)N[C@@H](Cc1c[nH]c2ccccc12)C(=O)N[C@@H](CCCNC(=N)N)C(=O)N[C@@H](CC(C)C)C(=O)N[C@@H](CC(C)C)C(=O)N[C@@H](CCCNC(=N)N)C(=O)N[C@@H](CCCCN)C(=O)NCC(N)=O
MBC (ATCC 6051; 18 h, 37 °C): 1.88 µM (≈ 3.25 µg/mL)

COc1ccc2c(ccc3oc([N+](=O)[O-])cc32)c1
MIC90 (REMA): < 0.25 µg/mL

CN[C@H](CC(C)C)C(=O)N[C@H]1C(=O)N[C@@H](CC(N)=O)C(=O)N[C@H]2C(=O)N[C@H]3C(=O)N[C@H](C(=O)N[C@H](C(=O)O)c4cc(O)cc(O)c4-c4cc3ccc4O)[C@H](O)c3ccc(c(Cl)c3)Oc3cc2cc(c3O[C@@H]2O[C@H](CO)[C@@H](O)[C@H](O)[C@H]2O[C@H]2C[C@](C)(N)[C@H](O)[C@H](C)O2)Oc2ccc(cc2Cl)[C@H]1O
MIC increase (29213; 30 days; relative to: initial MIC): 8 fold

CC[C@H](C)[C@H](NC(=O)[C@H](Cc1ccc(O)cc1)NC(=O)[C@@H](NC(=O)[C@H](Cc1c[nH]c2ccccc12)NC(=O)[C@@H]1CCCN1C(=O)[C@@H](NC(=O)[C@H](C)N)[C@@H](C)CC)[C@@H](C)CC)C(=O)N[C@@H](Cc1ccc(O)cc1)C(=O)N[C@@H](CCCNC(=N)N)C(=O)N[C@@H](CC(C)C)C(=O)N[C@@H](CC(C)C)C(=O)N[C@@H](CCCNC(=N)N)C(=O)N[C@@H](CCCCN)C(=O)NCC(=O)O
MBC (ATCC 35556; 18 h, 37 °C): 3.75 µM (≈ 6.61 µg/mL)

CCCCCC(=O)N[C@@H](CCCNC(=N)N)C(=O)N[C@@H](CCCNC(=N)N)C(=O)N[C@@H](CCCNC(=N)N)C(=O)N[C@@H](CCCNC(=N)N)C(=O)N[C@H](C(=O)N[C@@H](CC(C)C)C(=O)N[C@H](C(=O)N[C@@H](CCCCN)C(=O)N[C@@H](CCCCN)C(=O)N[C@H](C(=O)N[C@@H](CC(C)C)C(=O)N[C@@H](CCCCN)C(=O)N[C@@H](CC(C)C)C(=O)N[C@@H](CCCCN)C(=O)N[C@@H](CO)C(=O)N[C@@H](CO)C(=O)N[C@@H](C)C(=O)N[C@@H](Cc1ccc(O)cc1)C(N)=O)C(C)C)[C@@H](C)CC)[C@@H](C)CC
FICI (checkerboard; unit not given, with: oritavancin; lower means synergy): 0.06

COC1=CC(=O)c2c(O)c3c(c(O)c2C1=O)O[C@]1(Oc2c(cc4cc(C)oc(=O)c4c2O)[C@@H](O)[C@@H]1O)[C@@H]3O
log2 fold change (RNA-Seq, measured: lexA; MRSA ATCC 433000; MIC, 12 h; relative to: untreated): -2.95

O=[N+]([O-])c1cc2cc3ccc4oc([N+](=O)[O-])cc4c3cc2o1
MIC90 (REMA): 4 µg/mL (≈ 13.4 µM)

Cc1c2c(nn1C)CSCc1cc(n(C)n1)CSc1cc(c3ccccc3c1)OCCCc1c(C(=O)O)n(C)c3c-2c(Cl)ccc13
log2 fold change (label-free quantitative proteomics, measured: SAOUHSC_01835 protein; SA113; concentration not given; relative to: untreated control): 2.94

COc1cc2oc([N+](=O)[O-])cc2c2ccccc12
MIC90 (REMA): > 32 µg/mL

C[C@@H](O)[C@H]1C(=O)N2C(C(=O)O)=C(S[C@@H]3CN[C@H](C(=O)N(C)C)C3)[C@H](C)[C@H]12
antibacterial activity (USA300 FPR3757; concentration not given, 24 h): inactive

Oc1c(Br)cc(Br)c2nc3ccccc3nc12
zone of inhibition (MRSA 1707, DMSO stock; 10 µL of 10 mM, 16 h, without glutathione): 5.45 ± 0.34 cm²

OB(O)c1csc2ccccc12
biofilm formation (crystal violet; USA300 wild type; 10 µM; relative to: wild type untreated): 37.7% and 37.4% and 24%

CC(N)C(O)CCCCCCCCCCCCCCC(=O)CCCCCCCC(O)C(C)N (centres unmarked)
growth inhibition (resazurin; ATCC 12600; 50 µM): 99 ± 0.4%

COC(=O)c1ccc2c(ccc3oc([N+](=O)[O-])cc32)c1
MIC90 (REMA): > 32 µg/mL

CC[C@H](C)[C@H](NC(=O)[C@H](Cc1ccccc1)NC(=O)[C@@H](NC(=O)[C@H](Cc1c[nH]c2ccccc12)NC(=O)[C@@H]1CCCN1C(=O)[C@@H](NC(=O)[C@H](C)N)[C@@H](C)CC)[C@@H](C)CC)C(=O)N[C@@H](Cc1ccccc1)C(=O)N[C@@H](CCCNC(=N)N)C(=O)N[C@@H](CC(C)C)C(=O)N[C@@H](CC(C)C)C(=O)N[C@@H](CCCNC(=N)N)C(=O)N[C@@H](CCCCN)C(=O)NCC(N)=O
MBC (ATCC 19609; 18 h, 37 °C): 1.88 µM (≈ 3.25 µg/mL)

CC(C)C[C@H](NC(=O)[C@H](CCCCN)NC(=O)OCC1c2ccccc2-c2ccccc21)C(=O)N[C@H](C(=O)N[C@@H](Cc1ccccc1)C(=O)N[C@@H](Cc1ccccc1)C(=O)N[C@@H](CCCCN)C(=O)NCC(=O)N[C@@H](Cc1ccccc1)C(=O)N[C@@H](C)C(=O)N[C@@H](Cc1c[nH]c2ccccc12)C(=O)N[C@@H](CC(N)=O)C(=O)N[C@H](C(=O)N[C@H]1CSSC[C@@H](C(=O)N[C@@H](Cc2c[nH]cn2)C(=O)N[C@@H](CCCNC(=N)N)C(=O)N[C@@H](CCCNC(=N)N)C(=O)N[C@@H](C)C(=O)N[C@@H](CC(N)=O)C(N)=O)NC(=O)[C@H](C(C)C)NC(=O)[C@H](CCCNC(=N)N)NC(=O)[C@H](C(C)C)NC(=O)CNC(=O)[C@H](CC(N)=O)NC(=O)[C@H](CCCNC(=N)N)NC(=O)[C@H](Cc2ccc(O)cc2)NC(=O)[C@H](C(C)C)NC1=O)C(C)C)C(C)C
EC50 (bactericidal activity; CGMCC 1.9; 24 h): 6.51 µM

O=C(O)c1cn(C2CC2)c2cc(N3CCNCC3)c(F)cc2c1=O
biofilm inhibition (ATCC 33591 MRSA; 4×MIC): 4.18%

COc1ccc2ccc3oc([N+](=O)[O-])cc3c2c1Br
MIC90 (REMA): < 0.25 µg/mL

CO[C@@]1(NC(=O)Cc2cccs2)C(=O)N2C(C(=O)O)=C(COC(N)=O)CS[C@@H]21
inhibition zone diameter (ATCC 25923; 64 µg per disk): 23 mm
